Published values of several laboratories.
Values joined by “and” are separate records of one study, mostly repeats; a detail may differ. ± marks the error that the study gave.
TDP1: Tyrosyl-DNA phosphodiesterase 1 (TDP1, Homo sapiens, UniProt Q9NUW8)
Sequence of UniProt Q9NUW8 (whole entry, looked up): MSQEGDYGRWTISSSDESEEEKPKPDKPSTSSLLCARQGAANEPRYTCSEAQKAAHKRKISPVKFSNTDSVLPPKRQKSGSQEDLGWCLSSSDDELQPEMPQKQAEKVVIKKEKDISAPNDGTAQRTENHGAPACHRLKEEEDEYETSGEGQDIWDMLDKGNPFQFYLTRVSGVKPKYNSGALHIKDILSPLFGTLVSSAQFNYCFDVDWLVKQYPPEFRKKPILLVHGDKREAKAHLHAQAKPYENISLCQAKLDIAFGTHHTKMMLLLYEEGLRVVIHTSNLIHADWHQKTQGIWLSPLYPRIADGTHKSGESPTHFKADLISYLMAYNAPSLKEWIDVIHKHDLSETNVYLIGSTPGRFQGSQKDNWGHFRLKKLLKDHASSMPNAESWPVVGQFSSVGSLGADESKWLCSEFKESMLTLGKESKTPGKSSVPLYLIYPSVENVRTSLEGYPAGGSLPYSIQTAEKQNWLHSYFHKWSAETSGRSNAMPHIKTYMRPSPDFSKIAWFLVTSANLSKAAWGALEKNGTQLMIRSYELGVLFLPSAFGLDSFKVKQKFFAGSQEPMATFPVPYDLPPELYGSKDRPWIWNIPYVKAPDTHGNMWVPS

For `COc1ccc(NC(=O)c2ccc3[nH]c(-c4ccc(N(C)C)cc4)nc3c2)cn1`, the tumour volume was 186 mm3 and 113 mm3 and 239 mm3 and 110 mm3 (Lewis lung carcinoma, mice, syngeneic graft, subcutaneous; intraperitoneal, 25 mg/kg daily, day 0).
`CN1CCC[C@]1(C)/C=C/S(=O)(=O)NC(=O)Nc1c2c(cc3c1CCC3)CCC2` gave an IL-18 inhibition of 128% (human, whole blood ex vivo; 100 mg single dose, 12 h, single ascending dose, added: LPS and ATP).
For `COc1ccc(C(=O)CC2(O)C(=O)Nc3cc(Cl)cc(Cl)c32)cc1OC` (centres unmarked), the IC50 was over 100 µM (Uncharacterized protein (Trypanosoma brucei brucei, UniProt Q386Q8); inhibitor, coupled colorimetric; Trypanosoma brucei).
`COCCOCCOCCNC(=O)Cc1cc(CC(=O)N[C@H]2C[C@H]3C(=O)Nc4cc(OCCOCCOCCOC)cc(n4)C(=O)N4CCC[C@H]4C(=O)Nc4cc(OCCOCCOCCOC)cc(n4)C(=O)N4CCC[C@H]4C(=O)Nc4cc(OCCOCCOCCOC)cc(n4)C(=O)N3C2)cc(CC(=O)N[C@H]2C[C@H]3C(=O)Nc4cc(OCCOCCOCCOC)cc(n4)C(=O)N4CCC[C@H]4C(=O)Nc4cc(OCCOCCOCCOC)cc(n4)C(=O)N4CCC[C@H]4C(=O)Nc4cc(OCCOCCOCCOC)cc(n4)C(=O)N3C2)c1` has a TΔS of 6.142 ± 0.0478 kcal/mol (anion binding, ITC; water/methanol 95 vol% (97.7 mol%); 298 K, added: sodium sulfate).
`C#Cc1ccc(C=NOCc2ccc3nc(-c4ccccc4)c(Nc4ccc(C(=O)O)cc4)n3c2)cc1` gave an inhibition of 51.3% (TDP1; enzyme activity, inhibitor; 100 µM, unpurified compound).
`Cc1[nH]nc2c1N=C(c1ccccc1Cl)c1cnc(N3CCOCC3)cc1N2`: “tumour growth inhibition” 61% (mouse sample G TNBC PDX; oral, 15 mg/kg, 120 h, 5 days per week).
The inhibition of `CN(C)c1ccc(C=CC(=O)Nc2ccc(-c3ccc(NC(=O)C=Cc4ccc(N(C)C)cc4)cc3)cc2)cc1` is reported as 15.2% (carrageenan paw oedema; albino rat; oral, 50 mg/kg, 3 h).
`COc1cnc2cccc(N3CCc4c(cc(Cn5ccnc5)cc4-c4cn(C)nc4C(F)(F)F)C3=O)c2c1` has a tumour volume of 122 mm3 and 124 mm3 and 99 mm3 and 145 mm3 and 147 mm3 (BALB/c nude mice, MV4-11 xenograft; intraperitoneal, 75 mg/kg, day 21).
For `COc1ccc(C(=O)CCc2cc(C(CCc3ccc(O)cc3OC)c3ccc(O)cc3)c(O)cc2OC)cc1` (racemic), the 12-HETE level was 10100 ± 4140 pg/mL (human blood; 1 µM, added: A23187).
`COc1cc2c(NC3CCN(C(C)C)CC3)cc(N3CCOCC3)nc2cc1OCCCN1CCCC1` — result for “log2 fold change”: -0.0388 (TMT proteomics, refers to: YWHAB; 5xFAD mice, hippocampus; dose not given; baseline: untreated 5xFAD mice).
With `CN(C)c1ccc(C2CC(Nc3ccc(-c4ccc(NC5=NOC(c6ccc(N(C)C)cc6)C5)cc4)cc3)=NO2)cc1` (centres unmarked) the inhibition was 22.3% (carrageenan paw oedema; albino rat; oral, 50 mg/kg, 3 h).
For `Cc1cccc(C)c1CNc1cc(C(=O)N2CCC2)cn2c(C)c(C)nc12`, the inhibition was 79.2% (aspirin-induced gastric lesions; rat; oral, 2 mg/kg, 4 h; baseline: vehicle).
`COC1CN([C@H]2CC[C@H]([C@@]3(C)Oc4c(Cl)cc(C(=O)NCc5c(SC)cc(C)[nH]c5=O)c(C)c4O3)CC2)C1` — result for “log2 fold change”: 0.125 (RNA-seq, refers to: COL4A2 mouse homolog; mouse, HT-1376 xenograft, whole blood; dose not given; baseline: vehicle).
`NC[C@@H](C(=O)Nc1ccc(-c2cn[nH]c2)cc1)c1ccccc1` gave an IOP of 17.1 mmHg (tonometry; Macaca cyclopis, ocular normotensive; ocular, 0.1%, 48 h).
With `Cc1cc(C=NOCc2ccc(-c3nc4cc(-c5ccccc5)ccn4c3Nc3ccc(C(=O)O)cc3)cc2)c(C)n1-c1ccncc1` the inhibition was 83.7% (TDP1; enzyme activity, inhibitor; 100 µM, unpurified compound).
`CC[C@H](C)[C@@H](C(=O)N[C@@H](CC(C)C)C(=O)N[C@@H](CO)C(=O)N[C@@H](CO)C(=O)N[C@H](C(=O)N[C@@H](CCC(=O)O)C(=O)N[C@H](C(=O)NCC(=O)N[C@@H](CO)C(=O)NCC(=O)N[C@H](C(=O)N1C[C@H](O)C[C@H]1C(N)=O)[C@@H](C)O)C(C)C)[C@@H](C)O)N(C)C(=O)[C@H](C)NC(=O)CN(C)C(=O)[C@H](Cc1ccccc1)NC(=O)[C@H](CO)NC(=O)[C@H](CO)NC(=O)[C@H](CCCNC(=N)N)NC(=O)[C@@H](NC(=O)[C@H](CC(C)C)NC(=O)[C@H](Cc1ccccc1)NC(=O)[C@H](Cc1c[nH]cn1)NC(=O)[C@H](C)NC(=O)[C@H](CC(C)C)NC(=O)[C@H](CCCNC(=N)N)NC(=O)[C@H](CCC(=O)O)NC(=O)[C@@H](NC(=O)[C@H](C)NC(=O)[C@@H]1CSSC[C@H](NC(=O)[C@H](CCCNC(=N)N)NC(=O)CC[C@H](NC(=O)CCCCCCCCCCCCCCCCCCC(=O)O)C(=O)O)C(=O)NCC(=O)N[C@@H]([C@@H](C)O)C(=O)N[C@@H](C)C(=O)N[C@@H]([C@@H](C)O)C(=O)N1)[C@@H](C)O)[C@@H](C)O` has a food intake of 76.9 ± 4% (male Sprague-Dawley rats; subcutaneous, 30 nmol/kg single dose, 24 h; baseline: vehicle).
`COc1ccc(C=CC(=O)Nc2ccc(-c3ccc(NC(=O)C=Cc4ccc(OC)cc4)cc3)cc2)cc1` has an inhibition of 35.1% (carrageenan paw oedema; albino rat; oral, 50 mg/kg, 3 h; baseline: vehicle).
With `CC(C)=CCc1cc(C(=O)/C=C/c2ccc(O)cc2)c(O)cc1O` the Vmax was 40.6 ± 3.2 pmol/min/mg (phase I metabolism; mouse liver microsomes).
`CCCCCc1ccc(S(=O)(=O)N2CC2C(=O)OC)cc1` (centres unmarked): “tumour growth inhibition” 45% (mouse, Lewis lung carcinoma; intraperitoneal, 15 mg/kg, 16 doses, day 10).
`Cc1ncsc1-c1ccc(C(C)NC(=O)C2CC(O)CN2C(=O)C(NC(=O)CCCCCCCCCCN2CCCC(Nc3ncc(Cl)c(Nc4ccccc4S(=O)(=O)C(C)C)n3)C2)C(C)(C)C)cc1` (centres unmarked) — result for “log2 fold change”: -2.6 (22Rv1; RNA-seq, refers to: ZSCAN31 mRNA; concentration not given; baseline: DMSO).
`CC(C)(C)NCC(SS(=O)(=O)O)c1ccccc1` (centres unmarked) gave a spleen weight of 0.49 g and 0.52 g and 0.6 g and 0.62 g (mouse infected with Schistosoma mansoni; 600 mg/kg, day 42 post-infection dosing once, perfusion day 52 post-infection).
The luciferase induction of `CC(C)C[C@H](NC(=O)CNC(=O)[C@H](CCC(N)=O)NC(=O)[C@H](CC(C)C)NC(=O)[C@H](CC(C)C)NC(=O)[C@H](CCCNC(=N)N)NC(=O)[C@H](CCC(N)=O)NC(=O)[C@H](CC(C)C)NC(=O)[C@H](CCCNC(=N)N)NC(=O)[C@H](C)NC(=O)CNC(=O)[C@H](CCC(=O)O)NC(=O)[C@H](CCCNC(=N)N)NC(=O)[C@H](CC(C)C)NC(=O)[C@H](CCCNC(=N)N)NC(=O)[C@H](CO)NC(=O)[C@H](CC(C)C)NC(=O)[C@H](CCC(=O)O)NC(=O)[C@H](CO)NC(=O)[C@@H](NC(=O)[C@H](Cc1ccccc1)NC(=O)[C@@H](NC(=O)CNC(=O)[C@H](CC(=O)O)NC(=O)C(C)(C)NC(=O)[C@@H](N)Cc1c[nH]cn1)[C@@H](C)O)[C@@H](C)O)C(=O)N[C@@H](CC(C)C)C(=O)N[C@@H](CCC(N)=O)C(=O)NCC(=O)N[C@@H](CC(C)C)C(=O)N[C@H](C(=O)NCC(=O)N[C@@H](CCCCNC(=O)COCCOCCNC(=O)COCCOCCNC(=O)CC[C@H](NC(=O)CCCCCCCCCCCCCCCCC(=O)O)C(=O)O)C(N)=O)C(C)C` is reported as 6 fold (cAMP reporter gene; CRE-Luc mouse, kidney homogenate; subcutaneous, 300 nmol/kg, 6 h; baseline: vehicle).
For `CCC(=O)N[C@@H](C)C(=O)OCC(=O)N[C@@H](C)C(=O)O`, “chain scission rate constant” read 0.029 h⁻¹ (water; pH 8, 37 °C).
`OCC1OC(n2cnc3c(NCc4ccc(Br)s4)ncnc32)C(O)C1O` (centres unmarked) — result for basal respiration: “no effect” (Seahorse; slices, C57BL/6 mouse brain; acute exposure).
`COCC1CN(C2CCN(c3cc(OC)c(Nc4ncc(Br)c(Nc5ccc6c(c5P(C)(C)=O)OCCO6)n4)cc3C)CC2)C1` has a progressive disease of 100% (RECIST 1.1; advanced EGFR-mutant NSCLC patients; 240 mg once daily).
`COc1cc(O)ccc1CCC(c1ccc(O)cc1)c1cc2c(c(C)c1O)OC(c1ccc(O)cc1)CC2` (mixture of isomers) gave an amount of 33 ± 15 pg/mL blood (refers to: 7-HDHA; human whole blood; 30 µM, added: Escherichia coli).
